Results collected from several papers.
Compare with care: the assays were run in different laboratories. Values joined by “and” are separate records of one study, mostly repeats; a detail may differ. ± gives the spread as reported.

O=c1c2ccc(Oc3ccc(OC(F)(F)F)cc3)cc2[nH]c2cc(F)cc(Cl)c12
EC50 (Toxoplasma gondii; parasite growth, beta-galactosidase reporter; HFF, RH): 1.01 nM

CCc1cc(-c2ccc3cnn(C)c3c2)cc2c(Nc3cccc(OC)c3)c(C(N)=O)cnc12
EC50 (Trypanosoma brucei brucei; cell viability, Alamar blue; bloodstream form; 48 h): 7900 ± 2700 nM

CCOc1ccc2cc(-c3nn(CC4(O)CN(C)C4)c4ncnc(N)c34)ccc2c1
EC50 (Theileria equi; parasite growth, hydroethidine flow cytometry; Florida USDA; 72 h): 7810 nM

O=c1c2ccc(Oc3ccc(OC(F)(F)F)cc3)cc2[nH]c2cc(F)cc(F)c12
EC50 (Toxoplasma gondii; parasite growth, beta-galactosidase reporter; HFF, RH; 3 days): 0.053 nM

CCOc1ccc2cc(-c3nn(CC4CCNCC4)c4ncnc(N)c34)ccc2n1
EC50 (Theileria equi; parasite growth, hydroethidine flow cytometry; Florida USDA; 72 h): 4170 nM

C=Cc1cccc(-c2cc(=O)c3c(O)cc(O)c([C@H]4CCN(C)C[C@H]4O)c3o2)c1
EC50 (HIV-1; viral replication; HeLa-CD4-LTR/β-gal, LAI): 32.1 nM

O=C(NCCNCCO)c1cc2c([nH]c3ccccc32)c(-c2ccc(Cl)c(Cl)c2)n1
EC50 (Plasmodium falciparum; SYBR Green I; Dd2; 72 h, asexual blood stage): 253 ± 3 nM

CN1CC[C@H](c2c(O)cc(O)c3c(=O)cc(-c4ccc(C(F)(F)F)cc4)oc23)[C@H](O)C1
EC50 (HIV-1; viral replication; HeLa-CD4-LTR/β-gal, LAI): > 1000 nM

COc1cc(F)c2c(=O)c3ccc(Oc4ccc(OC(F)(F)F)cc4)cc3[nH]c2c1
EC50 (Toxoplasma gondii; parasite growth, beta-galactosidase reporter; HFF, RH): 0.17 nM

CN1CC[C@H](c2c(O)cc(O)c3c(=O)cc(-c4ccncc4)oc23)[C@H](O)C1
EC50 (HIV-1; viral replication; HeLa-CD4-LTR/β-gal, LAI): > 1000 nM

Cc1cccc2c1[nH]c1c(-c3ccc(Cl)c(Cl)c3)nc(C(=O)NCCNCCO)cc12
EC50 (Plasmodium falciparum; SYBR Green I; Dd2; 72 h, asexual blood stage): 91 ± 14 nM

CN1CC[C@H](c2c(O)cc(O)c3c(=O)cc(-c4cccnc4)oc23)[C@H](O)C1
EC50 (HIV-1; viral replication; HeLa-CD4-LTR/β-gal, LAI): > 1000 nM

COC(C)(C)Cn1nc(-c2ccc3cc(OC4CC4)ccc3c2)c2c(N)ncnc21
EC50 (Cryptosporidium parvum; parasite growth; HCT-8): > 5000 nM and 5870 nM

Excerpt of the above:
CN1CC[C@H](c2c(O)cc(O)c3c(=O)cc(-c4ccc(C(F)(F)F)cc4)oc23)[C@H](O)C1
EC50 (HIV-1; viral replication; HeLa-CD4-LTR/β-gal, LAI): > 1000 nM
